Measured values gathered from unrelated publications.
Numbers after ± are the reported error.
FFAR3: Free fatty acid receptor 3 (FFAR3, Homo sapiens, UniProt O14843)
Chain of UniProt O14843 (whole entry, looked up): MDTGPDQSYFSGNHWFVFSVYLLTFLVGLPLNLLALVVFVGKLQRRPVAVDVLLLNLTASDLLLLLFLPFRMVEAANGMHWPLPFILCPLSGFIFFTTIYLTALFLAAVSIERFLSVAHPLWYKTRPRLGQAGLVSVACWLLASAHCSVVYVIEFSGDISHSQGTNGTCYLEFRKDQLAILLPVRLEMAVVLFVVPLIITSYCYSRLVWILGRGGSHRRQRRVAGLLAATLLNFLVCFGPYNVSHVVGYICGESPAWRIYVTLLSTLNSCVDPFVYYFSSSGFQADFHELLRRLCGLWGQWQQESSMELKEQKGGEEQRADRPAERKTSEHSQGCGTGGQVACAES
NPSR1: Neuropeptide S receptor (NPSR1, Homo sapiens, UniProt Q6W5P4)
Chain of UniProt Q6W5P4 (whole entry, looked up): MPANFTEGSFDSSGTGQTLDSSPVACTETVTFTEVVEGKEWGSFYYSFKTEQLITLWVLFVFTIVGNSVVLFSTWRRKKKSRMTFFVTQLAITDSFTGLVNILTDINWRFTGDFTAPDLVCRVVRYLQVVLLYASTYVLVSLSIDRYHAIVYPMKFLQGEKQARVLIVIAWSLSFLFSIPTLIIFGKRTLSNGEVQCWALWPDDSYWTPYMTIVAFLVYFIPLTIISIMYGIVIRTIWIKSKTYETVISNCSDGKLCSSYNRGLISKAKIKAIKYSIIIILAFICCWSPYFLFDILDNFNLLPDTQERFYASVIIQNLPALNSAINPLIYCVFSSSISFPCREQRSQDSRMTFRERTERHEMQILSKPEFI
NR1H2 ligand-binding domain: Oxysterols receptor LXR-beta, ligand-binding domain (NR1H2, Homo sapiens, UniProt P55055)
Chain of UniProt P55055 (whole entry, looked up): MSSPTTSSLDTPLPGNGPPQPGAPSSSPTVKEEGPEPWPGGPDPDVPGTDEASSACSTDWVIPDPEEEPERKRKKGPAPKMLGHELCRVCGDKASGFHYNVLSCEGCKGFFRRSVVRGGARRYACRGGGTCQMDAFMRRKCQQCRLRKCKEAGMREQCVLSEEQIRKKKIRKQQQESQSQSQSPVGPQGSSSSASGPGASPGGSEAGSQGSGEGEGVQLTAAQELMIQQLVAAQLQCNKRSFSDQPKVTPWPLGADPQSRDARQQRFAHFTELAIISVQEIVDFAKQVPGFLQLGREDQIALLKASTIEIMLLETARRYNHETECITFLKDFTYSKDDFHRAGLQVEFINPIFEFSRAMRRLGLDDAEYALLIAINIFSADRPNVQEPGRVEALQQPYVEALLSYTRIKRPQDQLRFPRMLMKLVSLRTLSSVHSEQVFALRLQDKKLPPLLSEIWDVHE
PTH1R: Parathyroid hormone/parathyroid hormone-related peptide receptor (PTH1R, Homo sapiens, UniProt Q03431)
Chain of UniProt Q03431 (whole entry, looked up): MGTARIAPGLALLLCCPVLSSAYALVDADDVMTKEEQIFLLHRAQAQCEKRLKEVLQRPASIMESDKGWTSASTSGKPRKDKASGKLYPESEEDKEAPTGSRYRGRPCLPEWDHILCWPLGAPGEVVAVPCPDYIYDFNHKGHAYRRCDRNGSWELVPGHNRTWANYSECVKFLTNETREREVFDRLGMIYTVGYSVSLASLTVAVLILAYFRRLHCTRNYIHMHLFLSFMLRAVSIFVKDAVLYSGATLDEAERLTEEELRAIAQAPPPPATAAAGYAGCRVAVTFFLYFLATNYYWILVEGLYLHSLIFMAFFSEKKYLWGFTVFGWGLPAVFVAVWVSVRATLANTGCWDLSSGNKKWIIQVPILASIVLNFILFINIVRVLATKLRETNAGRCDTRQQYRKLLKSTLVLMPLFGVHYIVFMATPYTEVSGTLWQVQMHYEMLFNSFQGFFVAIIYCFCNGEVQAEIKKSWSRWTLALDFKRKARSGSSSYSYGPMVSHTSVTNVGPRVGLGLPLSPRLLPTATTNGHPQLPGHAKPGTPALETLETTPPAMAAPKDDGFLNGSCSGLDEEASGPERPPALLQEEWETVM
Chain of UniProt P32238 (whole entry, looked up): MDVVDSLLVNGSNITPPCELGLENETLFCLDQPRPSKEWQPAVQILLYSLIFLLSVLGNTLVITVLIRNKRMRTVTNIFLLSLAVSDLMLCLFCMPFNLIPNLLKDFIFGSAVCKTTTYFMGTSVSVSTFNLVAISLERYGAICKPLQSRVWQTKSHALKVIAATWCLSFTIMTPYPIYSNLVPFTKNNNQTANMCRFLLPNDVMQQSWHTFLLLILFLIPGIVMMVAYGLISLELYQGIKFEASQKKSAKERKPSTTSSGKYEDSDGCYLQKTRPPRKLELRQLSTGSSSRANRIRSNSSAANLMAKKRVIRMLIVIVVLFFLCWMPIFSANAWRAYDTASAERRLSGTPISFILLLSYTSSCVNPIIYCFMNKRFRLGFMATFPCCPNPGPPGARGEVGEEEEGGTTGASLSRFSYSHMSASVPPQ
Chain of UniProt P41586 (whole entry, looked up): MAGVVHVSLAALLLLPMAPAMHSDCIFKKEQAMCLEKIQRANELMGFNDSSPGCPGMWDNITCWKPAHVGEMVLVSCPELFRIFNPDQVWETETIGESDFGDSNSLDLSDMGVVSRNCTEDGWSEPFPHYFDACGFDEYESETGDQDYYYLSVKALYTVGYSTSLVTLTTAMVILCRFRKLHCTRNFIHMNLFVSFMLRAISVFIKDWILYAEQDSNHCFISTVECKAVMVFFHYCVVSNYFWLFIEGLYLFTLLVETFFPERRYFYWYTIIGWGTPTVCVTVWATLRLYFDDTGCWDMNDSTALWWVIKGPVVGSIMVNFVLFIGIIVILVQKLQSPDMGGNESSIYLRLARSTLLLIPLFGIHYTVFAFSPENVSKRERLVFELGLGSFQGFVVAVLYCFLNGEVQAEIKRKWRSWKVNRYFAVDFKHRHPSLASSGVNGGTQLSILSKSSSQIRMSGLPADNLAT
Chain of UniProt P30969 (whole entry, looked up): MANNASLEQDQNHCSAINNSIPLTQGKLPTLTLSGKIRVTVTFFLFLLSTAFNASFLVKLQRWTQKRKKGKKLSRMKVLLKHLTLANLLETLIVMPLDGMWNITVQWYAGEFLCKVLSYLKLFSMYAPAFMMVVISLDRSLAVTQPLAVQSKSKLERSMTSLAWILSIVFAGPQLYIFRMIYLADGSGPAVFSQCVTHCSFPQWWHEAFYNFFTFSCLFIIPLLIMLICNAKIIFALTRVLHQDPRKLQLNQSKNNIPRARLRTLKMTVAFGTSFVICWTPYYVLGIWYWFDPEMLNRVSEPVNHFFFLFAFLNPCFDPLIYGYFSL
Chain of UniProt Q9WUP1 (whole entry, looked up): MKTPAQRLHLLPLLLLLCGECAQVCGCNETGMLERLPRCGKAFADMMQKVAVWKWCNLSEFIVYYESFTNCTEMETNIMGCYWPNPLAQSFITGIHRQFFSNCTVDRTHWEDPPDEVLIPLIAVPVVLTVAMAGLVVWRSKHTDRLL
Chain of UniProt P21761 (whole entry, looked up): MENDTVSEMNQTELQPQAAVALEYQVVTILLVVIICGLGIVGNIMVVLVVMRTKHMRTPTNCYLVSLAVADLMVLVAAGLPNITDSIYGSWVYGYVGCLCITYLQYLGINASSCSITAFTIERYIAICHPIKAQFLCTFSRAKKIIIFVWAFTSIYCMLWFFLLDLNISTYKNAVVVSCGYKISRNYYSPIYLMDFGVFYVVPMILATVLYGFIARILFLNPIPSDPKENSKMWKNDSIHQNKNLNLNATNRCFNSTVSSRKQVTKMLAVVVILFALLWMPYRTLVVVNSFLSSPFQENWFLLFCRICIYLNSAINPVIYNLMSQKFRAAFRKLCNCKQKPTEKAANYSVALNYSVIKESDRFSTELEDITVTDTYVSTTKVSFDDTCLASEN
Chain of UniProt Q9R1W5 (whole entry, looked up): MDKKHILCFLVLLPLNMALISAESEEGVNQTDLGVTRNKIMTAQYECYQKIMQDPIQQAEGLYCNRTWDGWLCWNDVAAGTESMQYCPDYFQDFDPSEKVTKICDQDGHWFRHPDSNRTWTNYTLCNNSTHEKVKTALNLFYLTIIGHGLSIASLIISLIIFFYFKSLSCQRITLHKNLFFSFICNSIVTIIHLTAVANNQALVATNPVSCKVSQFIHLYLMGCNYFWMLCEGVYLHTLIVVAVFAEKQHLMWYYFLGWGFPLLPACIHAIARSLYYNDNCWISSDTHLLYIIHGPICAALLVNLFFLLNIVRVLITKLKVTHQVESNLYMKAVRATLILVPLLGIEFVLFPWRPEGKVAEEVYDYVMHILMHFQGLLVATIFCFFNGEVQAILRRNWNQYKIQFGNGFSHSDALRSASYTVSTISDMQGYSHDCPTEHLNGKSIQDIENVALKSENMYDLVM
Chain of UniProt P43119 (whole entry, looked up): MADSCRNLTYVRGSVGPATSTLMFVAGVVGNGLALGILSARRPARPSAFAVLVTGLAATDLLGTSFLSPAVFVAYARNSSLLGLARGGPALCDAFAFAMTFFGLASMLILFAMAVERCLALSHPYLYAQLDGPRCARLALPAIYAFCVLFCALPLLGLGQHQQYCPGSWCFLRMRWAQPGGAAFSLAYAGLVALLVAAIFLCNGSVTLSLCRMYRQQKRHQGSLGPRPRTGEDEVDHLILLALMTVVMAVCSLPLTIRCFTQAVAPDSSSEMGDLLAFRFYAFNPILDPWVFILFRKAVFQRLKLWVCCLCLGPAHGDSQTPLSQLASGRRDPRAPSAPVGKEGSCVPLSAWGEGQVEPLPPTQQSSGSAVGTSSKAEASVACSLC

C=CC(=O)O — EC50 (FFAR3; agonist): 912 µM
N=C(N)NCCC[C@H](NC(=O)[C@H](Cc1ccccc1)NC(=O)[C@@H](N)CO)C(=O)N[C@@H](CC(N)=O)C(=O)NCC(N)=O — EC50 (NPSR1; cAMP, agonist, TR-FRET): > 10 µM
NC(=O)[C@@H]1CCCN1C(=O)[C@H](Cc1cn(Cc2ccccc2)cn1)NC(=O)c1cnccn1 — EC50 (Thyrotropin-releasing hormone receptor (Mus musculus, UniProt P21761); calcium signal, agonist, fluorescence): 19.1 µM
NC(=O)CNC(=O)[C@@H]1CCCN1C(=O)[C@H](Cc1ccc(O)cc1)NC(=O)[C@H](Cc1c[nH]c2ccccc12)NC(=O)[C@@H](Cc1c[nH]c2ccccc12)NC(=O)[C@H](Cc1c[nH]cn1)NC(=O)[C@H](CO)NC(=O)[C@H](Cc1c[nH]c2ccccc12)NC(=O)[C@H](Cc1c[nH]cn1)NC(=O)[C@@H]1CCC(=O)N1 — EC50 (Gonadotropin-releasing hormone receptor (Rattus norvegicus, UniProt P30969); inositol phosphate accumulation, agonist; HEK293 expressing Gonadotropin-releasing hormone receptor; 60 min, 37 °C, with: 10 mM LiCl): 0.0059 ± 0.0009 µM
CN(C(=O)c1cccc(Cl)c1Cl)c1ccc(C(O)(C(F)(F)F)C(F)(F)F)cc1 — EC50 (NR1H2 ligand-binding domain; agonist; concentration not given): 2.37 ± 0.02 µM
CC[C@H](C)[C@H](NC(=O)CNC(=O)C1CCN(C(=O)[C@H](CO)NC(=O)[C@@H](N)Cc2c[nH]cn2)CC1)C(=O)N[C@@H](Cc1ccccc1)C(=O)N[C@H](C(=O)N[C@@H](CC(=O)O)C(=O)N[C@@H](CO)C(=O)N[C@@H](Cc1ccc(O)cc1)C(=O)N[C@@H](CO)C(=O)N[C@@H](CCCNC(=N)N)C(=O)N[C@@H](Cc1ccc(O)cc1)C(=O)N[C@@H](CCCNC(=N)N)C(=O)N[C@@H](CCCCN)C(=O)NC(C)(C)C(=O)N[C@@H](C)C(=O)N[C@@H](C)C(=O)N[C@H](C(=O)N[C@@H](CCCCN)C(=O)N[C@@H](CCCCN)C(=O)N[C@@H](Cc1ccc(O)cc1)C(=O)N[C@@H](CC(C)C)C(=O)N[C@@H](C)C(=O)N[C@@H](C)C(=O)N[C@H](C(=O)N[C@@H](CC(C)C)C(=O)NC(C)(C)C(=O)N[C@@H](CCCCN)C(=O)N[C@@H](CCCNC(=N)N)C(=O)N[C@@H](Cc1ccc(O)cc1)C(=O)N[C@@H](CCCCN)C(=O)N[C@@H](CCC(N)=O)C(=O)N[C@@H](CCCCN)C(=O)N[C@H](C(=O)N[C@@H](CCCCN)C(=O)N[C@@H](CC(N)=O)C(=O)N[C@H](CCCCN)C(N)=O)C(C)C)C(C)C)C(C)C)[C@@H](C)O — EC50 (Pituitary adenylate cyclase-activating polypeptide type I receptor (ADCYAP1R1, Homo sapiens, UniProt P41586); cAMP, agonist, radiometric): > 1 µM
O=C(O)C1CCC1 — EC50 (FFAR3; agonist): 126 µM
C=C1CC[C@H](OCCCNC(=O)CCOCCOCCOCCOCCOCCOCCOCCOCCOCCOCCOCCOCCOCCOCCOCCOCCOCCOCCOCCOCCOCCOCCOCCOCCOCCOCCOCCOCCOCCOCCOCCOCCOCCOCCOCCOCCNC(=O)CCN2C(=O)CC(SC[C@H](NC(=O)[C@H](Cc3ccccc3)NC(=O)[C@H](CC(N)=O)NC(=O)[C@H](Cc3c[nH]cn3)NC(=O)[C@@H](NC(=O)[C@H](CC(=O)O)NC(=O)[C@H](CCC(N)=O)NC(=O)[C@H](CC(C)C)NC(=O)[C@H](CCCCN)NC(=O)[C@H](CCCCN)NC(=O)[C@H](CCCNC(=N)N)NC(=O)[C@H](CC(C)C)NC(=O)[C@H](Cc3c[nH]c4ccccc34)NC(=O)[C@H](CCC(=O)O)NC(=O)[C@@H](NC(=O)[C@H](CCCNC(=N)N)NC(=O)[C@H](CCC(=O)O)NC(=O)[C@H](CCSC)NC(=O)[C@H](CO)NC(=O)[C@H](CC(N)=O)NC(=O)[C@H](CC(C)C)NC(=O)[C@H](Cc3c[nH]cn3)NC(=O)[C@H](CCCCN)NC(=O)CNC(=O)[C@H](CC(C)C)NC(=O)[C@H](CC(N)=O)NC(=O)[C@H](Cc3c[nH]cn3)NC(=O)[C@H](CCSC)NC(=O)[C@H](CC(C)C)NC(=O)[C@H](CCC(N)=O)NC(=O)[C@@H](NC(=O)[C@H](CCC(=O)O)NC(=O)[C@H](CO)NC(=O)[C@@H](NC(=O)[C@@H](N)CO)C(C)C)[C@@H](C)CC)C(C)C)C(C)C)C(=O)O)C2=O)C/C1=C/C=C1\CCC[C@]2(C)[C@@H]([C@H](C)CCCC(C)(C)O)CC[C@@H]12 (stereo partly shown) — EC50 (PTH1R; calcium signal, agonist, fluorescence): 0.0237 µM
CN(C(=O)c1cccc(F)c1)c1ccc(C(O)(C(F)(F)F)C(F)(F)F)cc1 — EC50 (NR1H2 ligand-binding domain; agonist; concentration not given): 1.08 ± 0.02 µM
CSCC[C@H](NC(=O)[C@H](CO)NC(=O)[C@H](CC(N)=O)NC(=O)[C@H](CC(C)C)NC(=O)[C@H](Cc1c[nH]cn1)NC(=O)[C@H](CCCCN)NC(=O)CNC(=O)[C@H](CCCCN)NC(=O)[C@H](CC(=O)O)NC(=O)[C@H](Cc1c[nH]cn1)NC(=O)[C@H](CC(C)C)NC(=O)[C@H](CC(C)C)NC(=O)[C@H](CCC(N)=O)NC(=O)[C@H](Cc1c[nH]cn1)NC(=O)[C@H](CCC(=O)O)NC(=O)[C@H](CO)NC(=O)[C@@H](NC(=O)[C@H](C)N)C(C)C)C(=O)N[C@@H](CCC(=O)O)C(=O)N[C@@H](CCCNC(=N)N)C(=O)N[C@H](C(=O)N[C@@H](CCC(=O)O)C(=O)N[C@@H](Cc1c[nH]c2ccccc12)C(=O)N[C@@H](CC(C)C)C(=O)N[C@@H](CCCNC(=N)N)C(=O)N[C@@H](CCCCN)C(=O)N[C@@H](CCCCN)C(=O)N[C@@H](CC(C)C)C(=O)N[C@@H](CCC(N)=O)C(=O)N[C@@H](CC(=O)O)C(=O)N[C@H](C(=O)N[C@@H](Cc1c[nH]cn1)C(=O)N[C@@H](CC(N)=O)C(=O)N[C@@H](Cc1ccccc1)C(=O)N[C@@H](CCCCNC(=O)c1ccc2c(c1)C1(OC2=O)c2ccc(N(C)C)cc2Oc2cc(N(C)C)ccc21)C(N)=O)C(C)C)C(C)C — EC50 (PTH1R; cAMP formation, agonist, GloSensor; HEK293 GP2.3; 15 min): 0.00015 ± 2e-05 µM
C/C=C\C(=O)O — EC50 (FFAR3; cAMP, agonist, TR-FRET): 479 µM
O=C(O)/C=C/c1cccc(NC(=O)c2cc(-c3ccc(F)cc3)ccc2F)c1 — EC50 (Prostacyclin receptor (PTGIR, Homo sapiens, UniProt P43119); calcium signal, agonist, fluorescence): > 10 µM
CC(=O)Nc1ccc(Sc2ncccc2C(=O)Nc2ccc(F)cc2)cn1 — EC50 (Cholecystokinin receptor type A (CCKAR, Homo sapiens, UniProt P32238); human cells): 6.5 µM
C/C=C(/C)C(=O)O — EC50 (FFAR3; agonist): > 10000 µM
CC[C@H](C)[C@H](NC(=O)[C@H](CCC(=O)O)NC(=O)[C@H](CO)NC(=O)[C@@H](NC(=O)[C@@H](N)CO)C(C)C)C(=O)N[C@@H](CCC(N)=O)C(=O)N[C@@H](CC(C)C)C(=O)N[C@@H](CCSC)C(=O)N[C@@H](Cc1c[nH]cn1)C(=O)N[C@@H](CC(N)=O)C(=O)N[C@@H](CC(C)C)C(=O)NCC(=O)N[C@@H](CCCCN)C(=O)N[C@@H](Cc1c[nH]cn1)C(=O)N[C@@H](CC(C)C)C(=O)N[C@@H](CC(N)=O)C(=O)N[C@@H](CO)C(=O)N[C@@H](CCSC)C(=O)N[C@@H](CCC(=O)O)C(=O)N[C@@H](CCCNC(=N)N)C(=O)N[C@H](C(=O)N[C@@H](CCC(=O)O)C(=O)N[C@@H](Cc1c[nH]c2ccccc12)C(=O)N[C@@H](CC(C)C)C(=O)N[C@@H](CCCNC(=N)N)C(=O)N[C@@H](CCCCN)C(=O)N[C@@H](CCCCN)C(=O)N[C@@H](CC(C)C)C(=O)N[C@@H](CCC(N)=O)C(=O)N[C@@H](CC(=O)O)C(=O)N[C@H](C(=O)N[C@@H](Cc1c[nH]cn1)C(=O)N[C@@H](CC(N)=O)C(=O)N[C@@H](Cc1ccccc1)C(=O)N[C@H](C(=O)N[C@@H](C)C(=O)N[C@@H](CC(C)C)C(=O)O)C(C)C)C(C)C)C(C)C — EC50 (PTH1R; cAMP, agonist): 0.000263 µM
CN(C(=O)c1cccc(C(F)(F)F)c1)c1ccc(C(O)(C(F)(F)F)C(F)(F)F)cc1 — EC50 (NR1H2 ligand-binding domain; agonist; concentration not given): 3.1 ± 0.1 µM
CC[C@H](C)[C@H](NC(=O)[C@@H]1CCCN1C(=O)CNC(=O)[C@H](Cc1ccccc1)NC(=O)[C@H](CC(N)=O)NC(=O)[C@H](CC(N)=O)NC(=O)[C@H](CO)NC(=O)[C@H](CO)NC(=O)[C@H](Cc1c[nH]cn1)NC(=O)[C@@H](NC(=O)[C@H](CC(C)C)NC(=O)[C@H](Cc1ccccc1)NC(=O)[C@H](CC(N)=O)NC(=O)[C@H](C)NC(=O)[C@H](CC(C)C)NC(=O)[C@H](CCCNC(=N)N)NC(=O)[C@H](CCC(N)=O)NC(=O)[C@@H](NC(=O)[C@H](C)NC(=O)[C@@H]1CSSC[C@H](NC(=O)[C@@H](N)CCCCN)C(=O)N[C@@H](CC(N)=O)C(=O)N[C@@H]([C@@H](C)O)C(=O)N[C@@H](C)C(=O)N[C@@H]([C@@H](C)O)C(=O)N1)[C@@H](C)O)C(C)C)C(=O)N[C@@H](CC(C)C)C(=O)N1CCC[C@H]1C(=O)N1CCC[C@H]1C(=O)N[C@H](C(=O)N[C@@H](CC(N)=O)C(=O)N[C@H](C(=O)NCC(=O)N[C@@H](CO)C(=O)N[C@@H](CC(N)=O)C(=O)N[C@H](C(=O)N[C@@H](Cc1ccc(O)cc1)C(N)=O)[C@@H](C)O)C(C)C)[C@@H](C)O — EC50 (Calcrl/Ramp3 (Mus musculus, UniProt Q9R1W5+Q9WUP1); cAMP production, agonist; COS-7, transfected; 15 min, 37 °C, with: IBMX 1 mM): 0.0257 µM
CCOc1ccccc1-c1nnc2n1N=C(c1ccc(NC(=O)C(C)C)cc1)CS2 — EC50 (C-X-C chemokine receptor type 4 (CXCR4, Homo sapiens, UniProt P61073); β-arrestin recruitment, agonist): > 10 µM
N=C(N)NCCC[C@H](NC(=O)[C@H](Cc1ccccc1)NC(=O)[C@@H](N)CO)C(=O)N[C@@H](CC(N)=O)C(N)=O — EC50 (NPSR1; calcium signal, agonist): 0.998 µM

For quick reference, copied from above:
C=CC(=O)O — EC50 (FFAR3; agonist): 912 µM
